{"data": "Measured values of several laboratories", "HLA class I histocompatibility antigen, A alpha chain": "HLA class I histocompatibility antigen, A alpha chain (Homo sapiens, UniProt P04439)", "gag-pol K653A reverse transcriptase": "Gag-Pol polyprotein, reverse transcriptase (gag-pol, Human immunodeficiency virus type 1 group M subtype B, UniProt P04585, K653A)", "Epithelial sodium channel subunit beta": "Epithelial sodium channel subunit beta (Homo sapiens, UniProt P51168)", "note": "Compare with care: the assays were run in different laboratories. ± marks the error that the study gave.", "chain of UniProt P51168 (whole entry, looked up)": "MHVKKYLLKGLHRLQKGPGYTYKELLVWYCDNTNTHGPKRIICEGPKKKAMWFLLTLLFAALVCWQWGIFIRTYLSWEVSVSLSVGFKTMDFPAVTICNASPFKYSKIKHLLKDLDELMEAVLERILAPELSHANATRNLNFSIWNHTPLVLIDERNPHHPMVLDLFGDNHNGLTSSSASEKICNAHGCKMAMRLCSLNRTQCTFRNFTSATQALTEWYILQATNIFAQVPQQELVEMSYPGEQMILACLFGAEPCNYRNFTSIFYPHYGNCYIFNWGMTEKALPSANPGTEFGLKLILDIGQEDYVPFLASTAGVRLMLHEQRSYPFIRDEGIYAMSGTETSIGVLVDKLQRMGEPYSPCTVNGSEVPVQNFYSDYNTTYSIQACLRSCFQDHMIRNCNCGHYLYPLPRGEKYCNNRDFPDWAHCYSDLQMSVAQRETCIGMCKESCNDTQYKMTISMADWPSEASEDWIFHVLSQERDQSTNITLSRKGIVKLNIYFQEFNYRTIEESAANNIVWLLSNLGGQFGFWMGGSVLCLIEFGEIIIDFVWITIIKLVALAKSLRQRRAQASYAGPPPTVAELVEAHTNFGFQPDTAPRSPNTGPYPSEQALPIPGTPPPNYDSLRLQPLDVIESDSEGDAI", "chain of UniProt P20782 (whole entry, looked up)": "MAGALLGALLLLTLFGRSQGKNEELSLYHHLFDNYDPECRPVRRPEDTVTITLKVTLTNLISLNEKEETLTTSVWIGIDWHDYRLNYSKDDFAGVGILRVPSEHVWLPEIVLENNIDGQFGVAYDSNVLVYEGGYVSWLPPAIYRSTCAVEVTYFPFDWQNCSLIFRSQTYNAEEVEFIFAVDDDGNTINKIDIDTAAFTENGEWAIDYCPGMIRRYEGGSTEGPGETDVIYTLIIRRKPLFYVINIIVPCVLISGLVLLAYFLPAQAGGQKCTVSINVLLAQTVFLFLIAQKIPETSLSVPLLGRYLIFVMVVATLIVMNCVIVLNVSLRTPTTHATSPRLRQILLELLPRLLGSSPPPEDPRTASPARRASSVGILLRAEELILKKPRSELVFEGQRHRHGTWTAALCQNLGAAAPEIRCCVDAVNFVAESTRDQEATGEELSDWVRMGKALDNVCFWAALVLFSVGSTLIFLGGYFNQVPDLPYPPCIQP", "chain of UniProt P33424 (whole entry, looked up)": "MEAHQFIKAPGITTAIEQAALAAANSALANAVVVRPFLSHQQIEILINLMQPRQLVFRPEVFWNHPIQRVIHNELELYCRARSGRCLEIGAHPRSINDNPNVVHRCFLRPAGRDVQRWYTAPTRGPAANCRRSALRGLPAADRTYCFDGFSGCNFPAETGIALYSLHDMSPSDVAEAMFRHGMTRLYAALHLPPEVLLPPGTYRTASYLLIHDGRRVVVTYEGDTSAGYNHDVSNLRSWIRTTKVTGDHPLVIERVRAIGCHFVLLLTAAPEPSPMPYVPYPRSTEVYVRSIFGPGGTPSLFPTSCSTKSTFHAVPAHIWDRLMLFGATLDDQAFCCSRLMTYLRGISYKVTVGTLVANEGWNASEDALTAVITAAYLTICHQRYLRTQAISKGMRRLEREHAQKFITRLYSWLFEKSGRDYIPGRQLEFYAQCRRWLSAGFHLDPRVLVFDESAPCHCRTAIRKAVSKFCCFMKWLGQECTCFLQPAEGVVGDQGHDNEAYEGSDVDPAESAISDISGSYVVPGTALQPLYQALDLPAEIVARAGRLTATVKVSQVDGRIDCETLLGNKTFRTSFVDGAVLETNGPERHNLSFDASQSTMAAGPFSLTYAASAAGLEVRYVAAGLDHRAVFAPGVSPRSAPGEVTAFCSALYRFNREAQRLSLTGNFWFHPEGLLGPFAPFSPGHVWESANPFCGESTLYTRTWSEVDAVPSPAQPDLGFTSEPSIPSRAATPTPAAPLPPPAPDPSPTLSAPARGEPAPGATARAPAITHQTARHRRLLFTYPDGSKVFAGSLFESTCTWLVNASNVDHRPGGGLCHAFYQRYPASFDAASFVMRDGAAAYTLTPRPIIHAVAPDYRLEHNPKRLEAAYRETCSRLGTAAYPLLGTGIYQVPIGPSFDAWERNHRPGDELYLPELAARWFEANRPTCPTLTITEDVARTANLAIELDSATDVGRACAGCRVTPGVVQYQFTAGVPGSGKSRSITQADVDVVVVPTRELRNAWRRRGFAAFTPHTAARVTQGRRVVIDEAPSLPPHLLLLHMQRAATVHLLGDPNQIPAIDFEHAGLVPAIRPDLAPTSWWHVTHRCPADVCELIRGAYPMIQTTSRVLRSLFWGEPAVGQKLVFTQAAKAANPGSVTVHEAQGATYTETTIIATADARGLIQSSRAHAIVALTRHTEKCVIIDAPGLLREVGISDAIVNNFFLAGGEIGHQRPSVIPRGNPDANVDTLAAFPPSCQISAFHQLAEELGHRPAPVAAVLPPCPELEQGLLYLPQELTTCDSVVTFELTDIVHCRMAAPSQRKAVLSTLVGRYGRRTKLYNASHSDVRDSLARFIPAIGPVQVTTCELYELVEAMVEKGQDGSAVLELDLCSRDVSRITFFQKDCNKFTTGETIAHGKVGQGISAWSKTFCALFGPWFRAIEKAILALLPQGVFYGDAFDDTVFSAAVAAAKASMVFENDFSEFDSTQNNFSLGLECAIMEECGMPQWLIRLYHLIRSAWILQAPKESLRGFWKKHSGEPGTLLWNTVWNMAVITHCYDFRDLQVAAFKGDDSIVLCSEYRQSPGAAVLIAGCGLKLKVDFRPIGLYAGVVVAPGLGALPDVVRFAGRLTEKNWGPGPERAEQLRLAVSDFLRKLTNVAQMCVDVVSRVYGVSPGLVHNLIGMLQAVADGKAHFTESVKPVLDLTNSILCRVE", "chain of UniProt P02716 (whole entry, looked up)": "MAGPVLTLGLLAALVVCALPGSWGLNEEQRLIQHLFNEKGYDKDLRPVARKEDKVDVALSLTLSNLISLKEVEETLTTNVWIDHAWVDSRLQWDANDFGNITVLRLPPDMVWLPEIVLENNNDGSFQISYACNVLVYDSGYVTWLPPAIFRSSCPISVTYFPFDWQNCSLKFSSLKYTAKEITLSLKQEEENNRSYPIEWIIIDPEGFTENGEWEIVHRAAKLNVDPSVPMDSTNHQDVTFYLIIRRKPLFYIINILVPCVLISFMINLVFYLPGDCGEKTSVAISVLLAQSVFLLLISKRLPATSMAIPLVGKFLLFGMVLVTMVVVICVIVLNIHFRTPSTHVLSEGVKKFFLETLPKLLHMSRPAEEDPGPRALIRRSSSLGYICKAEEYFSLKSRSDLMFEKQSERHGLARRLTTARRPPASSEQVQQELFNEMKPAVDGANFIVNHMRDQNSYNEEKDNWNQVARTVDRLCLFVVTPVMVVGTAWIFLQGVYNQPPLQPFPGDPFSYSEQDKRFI", "chain of UniProt Q9NSA0 (whole entry, looked up)": "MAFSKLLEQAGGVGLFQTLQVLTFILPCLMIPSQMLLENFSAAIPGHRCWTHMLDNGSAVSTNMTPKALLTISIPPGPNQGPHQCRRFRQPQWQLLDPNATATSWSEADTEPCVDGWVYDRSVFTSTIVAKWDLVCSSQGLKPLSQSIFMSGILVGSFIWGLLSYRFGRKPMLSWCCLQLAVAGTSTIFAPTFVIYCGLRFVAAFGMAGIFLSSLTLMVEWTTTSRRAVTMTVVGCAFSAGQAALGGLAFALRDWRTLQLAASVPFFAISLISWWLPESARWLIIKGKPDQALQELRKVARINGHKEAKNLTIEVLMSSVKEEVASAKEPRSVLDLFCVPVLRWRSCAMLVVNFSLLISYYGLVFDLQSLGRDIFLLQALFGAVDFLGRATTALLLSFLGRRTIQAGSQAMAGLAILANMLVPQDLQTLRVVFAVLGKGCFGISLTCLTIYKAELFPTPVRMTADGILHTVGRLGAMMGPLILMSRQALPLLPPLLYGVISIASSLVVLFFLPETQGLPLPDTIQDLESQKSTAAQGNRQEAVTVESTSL", "chain of UniProt P04756 (whole entry, looked up)": "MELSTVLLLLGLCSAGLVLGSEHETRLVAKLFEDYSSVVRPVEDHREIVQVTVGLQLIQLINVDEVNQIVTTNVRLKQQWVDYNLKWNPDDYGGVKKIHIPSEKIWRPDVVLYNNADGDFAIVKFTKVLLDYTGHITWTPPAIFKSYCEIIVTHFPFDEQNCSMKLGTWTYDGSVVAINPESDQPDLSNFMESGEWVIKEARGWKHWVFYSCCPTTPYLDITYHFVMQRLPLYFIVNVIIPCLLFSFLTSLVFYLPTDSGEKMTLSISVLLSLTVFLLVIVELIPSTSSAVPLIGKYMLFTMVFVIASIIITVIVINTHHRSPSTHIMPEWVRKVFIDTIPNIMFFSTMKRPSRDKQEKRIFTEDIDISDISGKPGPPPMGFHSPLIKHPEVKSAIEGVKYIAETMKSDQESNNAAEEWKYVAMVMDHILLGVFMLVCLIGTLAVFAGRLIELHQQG"}
{"Substance": "CCOC(=O)CC(SP(=S)(OC)OC)C(=O)OCC (stereo not drawn)", "target": "uncharacterized protein (Anopheles coluzzii, UniProt A0A6E8VQK1)", "test": "enzyme activity, inhibitor", "test system": "Sf9 cell homogenate", "setting": "0.4545 µM, 0.1667 h, together with: α-naphthyl acetate substrate", "how to read": "baseline: no inhibitor", "quantity": "remaining activity", "value": "105%"}
{"Substance": "RASILSGGK", "target": "HLA class I histocompatibility antigen, A alpha chain", "test": "peptide binding, iTopia affinity", "test system": "peptide", "quantity": "ED50", "value": "19.1 µM"}
{"Substance": "Nc1ncnc2c1ncn2[C@H]1C[C@H](O)[C@@H](COP(=O)(O)OP(=O)(O)OP(=O)(O)O)O1", "target": "gag-pol K653A reverse transcriptase", "test": "substrate", "setting": "K66A mutant, together with: G:A mismatched primer template", "quantity": "Km", "value": "326 ± 164 µM"}
{"Substance": "Cc1c2oc3c(C)ccc(C(=O)N[C@@H]4C(=O)N[C@H](C(C)C)C(=O)N5CCC[C@H]5C(=O)N(C)CC(=O)N(C)[C@@H](C(C)C)C(=O)O[C@@H]4C)c3nc-2c(C(=O)N[C@@H]2C(=O)N[C@H](C(C)C)C(=O)N3CCC[C@H]3C(=O)N(C)CC(=O)N(C)[C@@H](C(C)C)C(=O)O[C@@H]2C)c(N)c1=O", "target": "Non-structural polyprotein pORF1, RNA-dependent RNA polymerase (Hepatitis E virus genotype 1, UniProt P33424)", "test": "PicoGreen fluorescence", "test system": "Hepatitis E virus", "setting": "5 µM, together with: poly(C)/GTP", "quantity": "RdRp activity", "value": "no effect"}
{"Substance": "NC(=O)c1c(N)sc2c1CCCCC2", "target": "Gag-Pol polyprotein, RT with RNA/DNA hybrid (gag-pol, Human immunodeficiency virus 1, UniProt P03366, E1077Q/T1072C)", "test": "nucleoprotein complex dissociation, electrophoretic mobility shift", "quantity": "lowest effective concentration", "value": "1.6 µM"}
{"Substance": "O=c1c(I)ccc2n1C[C@@H]1CNC[C@H]2C1", "target": "α7* nAChR, mouse", "test system": "DBA/2J mice, dentate gyrus granular layer", "setting": "intravenous infusion, 0.2 mg/kg/h, 7 days", "how to read": "baseline: saline", "quantity": "change in binding sites", "value": "63.5%"}
{"Substance": "Cc1cn([C@H]2C=C[C@@H](COP(=O)(O)OP(=O)(O)OP(=O)(O)O)O2)c(=O)[nH]c1=O", "target": "Gag-Pol polyprotein, reverse transcriptase (gag-pol, Human immunodeficiency virus type 1 group M subtype B, UniProt P04585, K652R)", "test": "reverse transcriptase activity, inhibitor", "test system": "HIV-1", "how to read": "baseline: K65R mutant over wild type", "quantity": "fold resistance", "value": "3 fold"}
{"Substance": "RASVLSGGK", "target": "HLA class I histocompatibility antigen, A alpha chain", "test": "iTopia binding", "test system": "peptide", "setting": "11 µM, 18 h, 21 °C", "how to read": "baseline: positive control", "quantity": "peptide binding", "value": "96.5%"}
{"Substance": "Cc1cn([C@H]2C[C@H](O)[C@@H](COP(=O)(O)OP(=O)(O)OP(=O)(O)O)O2)c(=O)[nH]c1=O", "target": "Gag-Pol polyprotein, reverse transcriptase (gag-pol, Human immunodeficiency virus type 1 group M subtype B, UniProt P04585)", "test": "nucleotide misinsertion, steady-state kinetics", "setting": "wild-type RT, together with: opposite template T", "quantity": "kcat", "value": "0.0265 ± 0.00583 s⁻¹"}
{"Substance": "LARNCRAPR", "target": "HLA class I histocompatibility antigen, A alpha chain", "test": "peptide binding, iTopia affinity", "test system": "peptide", "quantity": "ED50", "value": "24 µM"}
{"Substance": "CCN(CC)c1nc(C)cc(OP(=S)(OC)OC)n1", "target": "uncharacterized protein (Anopheles coluzzii, UniProt A0A6E8VQK1)", "test": "enzyme activity, inhibitor", "test system": "Sf9 cell homogenate", "setting": "0.0004587 µM, 0.1667 h, together with: α-naphthyl acetate substrate", "how to read": "baseline: no inhibitor", "quantity": "remaining activity", "value": "102%"}
{"Substance": "COc1cc2c3cc1Oc1cc(ccc1O)C[C@@H]1c4c(cc(OC)c(O)c4Oc4ccc(cc4)C[C@@H]3N(C)CC2)CC[N+]1(C)C", "target": "Chrnd/Chrna1/Chrne (Mus musculus, UniProt P02716+P04756+P20782)", "test system": "mouse diaphragm", "setting": "0.1 µM, AChE inhibited", "quantity": "free receptor reduction", "value": "75%"}
{"Substance": "Nc1nc2c(ncn2[C@H]2C[C@H](O)[C@@H](COP(=O)(O)OP(=O)(O)OP(=O)(O)O)O2)c(=O)[nH]1", "target": "Gag-Pol polyprotein, reverse transcriptase (gag-pol, Human immunodeficiency virus type 1 group M subtype B, UniProt P04585, K653T)", "test": "nucleotide misinsertion, steady-state kinetics", "setting": "K66T mutant RT, together with: opposite template T", "quantity": "Km", "value": "15.4 ± 6.69 µM"}
{"Substance": "ARNCRAPRK", "target": "HLA class I histocompatibility antigen, A alpha chain", "test": "peptide binding, iTopia affinity", "test system": "peptide", "quantity": "ED50", "value": "31.8 µM"}
{"Substance": "CC[C@H](C)[C@H](NC(=O)[C@@H](NC(=O)[C@H](CC(C)C)NC(=O)[C@H](CC(N)=O)NC(=O)[C@H](CC(=O)O)NC(=O)[C@H](CCC(=O)O)NC(=O)[C@@H](NC(=O)[C@@H](N)CCCNC(=N)N)[C@@H](C)CC)C(C)C)C(=O)N[C@H](C(=O)N[C@@H](CCCNC(=N)N)C(=O)O)[C@@H](C)CC", "target": "Epithelial sodium channel subunit beta", "test": "binding, bio-layer interferometry", "quantity": "koff", "value": "0.0507 s⁻¹"}
{"Substance": "Nc1ccn([C@H]2C[C@H](O)[C@@H](COP(=O)(O)OP(=O)(O)OP(=O)(O)O)O2)c(=O)n1", "target": "gag-pol K653A reverse transcriptase", "test": "nucleotide misinsertion, steady-state kinetics", "setting": "K66A mutant RT, together with: opposite template T", "quantity": "Km", "value": "351 ± 326 µM"}
{"Substance": "CC(C)C[C@H](NC(=O)[C@H](Cc1ccccc1)NC(=O)[C@@H]1CCCN1C(=O)[C@H](CCCNC(=N)N)NC(=O)[C@H](CCC(=O)O)NC(=O)[C@@H]1CCCN1C(=O)[C@H](CO)NC(=O)[C@@H](N)CCC(=O)O)C(=O)O", "target": "Epithelial sodium channel subunit beta", "test": "binding, bio-layer interferometry", "quantity": "kon", "value": "47.5 M⁻¹ s⁻¹"}
{"Substance": "[Ni+2]", "target": "uncharacterized protein (Bacteroides thetaiotaomicron, UniProt Q8A183)", "test": "phosphatase activity, activator, phosphate release", "setting": "5 mM, EDTA-treated enzyme, together with: substrate 20 mM", "how to read": "baseline: activity with Mg2+", "quantity": "relative specific activity", "value": 0.056}
{"Substance": "Cc1cn(COCCOP(=O)(O)OP(=O)(O)OP(=O)(O)O)c(=O)[nH]c1=O", "target": "Gag-Pol polyprotein, reverse transcriptase p66 homodimer (gag-pol, Human immunodeficiency virus type 1 group M subtype B, UniProt P04585)", "test": "substrate", "quantity": "Km", "value": "0.97 ± 0.28 µM"}
{"Substance": "KNCRAPRKK", "target": "HLA class I histocompatibility antigen, A alpha chain", "test": "iTopia binding", "test system": "peptide", "setting": "11 µM, 18 h, 21 °C", "how to read": "baseline: positive control", "quantity": "peptide binding", "value": "37.9%"}
{"Substance": "C[C@@H]1Cc2c(Cl)cc(C(=O)N[C@@H](Cc3ccccc3)C(=O)O)c(O)c2C(=O)O1", "target": "SLC22A11 (Homo sapiens, UniProt Q9NSA0)", "test": "substrate", "test system": "CHO cells expressing human OAT4", "setting": "5 min, pH 7.4", "quantity": "Jmax", "value": "3.1 ± 0.9 pmol/cm2/min"}
{"note": "Excerpt of the above:"}
{"Substance": "Nc1nc2c(ncn2[C@H]2C[C@H](O)[C@@H](COP(=O)(O)OP(=O)(O)OP(=O)(O)O)O2)c(=O)[nH]1", "target": "Gag-Pol polyprotein, reverse transcriptase (gag-pol, Human immunodeficiency virus type 1 group M subtype B, UniProt P04585, K653T)", "test": "nucleotide misinsertion, steady-state kinetics", "setting": "K66T mutant RT, together with: opposite template T", "quantity": "Km", "value": "15.4 ± 6.69 µM"}
{"Substance": "ARNCRAPRK", "target": "HLA class I histocompatibility antigen, A alpha chain", "test": "peptide binding, iTopia affinity", "test system": "peptide", "quantity": "ED50", "value": "31.8 µM"}
{"Substance": "CC[C@H](C)[C@H](NC(=O)[C@@H](NC(=O)[C@H](CC(C)C)NC(=O)[C@H](CC(N)=O)NC(=O)[C@H](CC(=O)O)NC(=O)[C@H](CCC(=O)O)NC(=O)[C@@H](NC(=O)[C@@H](N)CCCNC(=N)N)[C@@H](C)CC)C(C)C)C(=O)N[C@H](C(=O)N[C@@H](CCCNC(=N)N)C(=O)O)[C@@H](C)CC", "target": "Epithelial sodium channel subunit beta", "test": "binding, bio-layer interferometry", "quantity": "koff", "value": "0.0507 s⁻¹"}
